Measured values of several laboratories.
Compare with care: the assays were run in different laboratories. Values joined by “and” are separate records of one study, mostly repeats; a detail may differ. pEC50, pIC50: −log10 of the molar value.

CC[C@@H](C)[C@@H](NC(=O)[C@@H](Cc1ccc(O)cc1)NC(=O)[C@H]1CCCN1C(=O)[C@@H](CCCNC(=N)N)NC(=O)[C@H](N)Cc1c[nH]cn1)C(=O)N[C@H](C)C(=O)N[C@H](Cc1c[nH]cn1)C(=O)NCC(=O)NCC(=O)NCC(=O)N[C@@H](CCCCNC(=O)CCCC[C@@H]1SC[C@@H]2NC(=O)N[C@@H]21)C(N)=O
binding rate (HEK293T-GFP cells; flow cytometry; concentration not given, added: biotin-labelled peptide): 0.22% and 0.19% and 0.24%

Cc1cc(Cl)cc(-c2ccnc3cc(CN4C(=O)C5C(C4=O)C5(C)C)sc23)c1C[C@@H]1CNCCO1 (stereo partly shown)
G1 phase cells (CHP-212 resistant; PI flow cytometry; 1 µM, 24 h): 75.9%

CNS(=O)(=O)Nc1nccc(Cc2c(C)c3ccc(Oc4ncccc4F)cc3oc2=O)c1F
pIC50 (Kelly; cell viability, CellTiter-Glo; 7 days): 6.17

CCN(CC)CC(=O)Nc1cccc(-n2cc(-c3ccc4ccc(-c5cn(-c6cccc(NC(=O)CN(CC)CC)c6)nn5)cc4c3)nn2)c1
fold regulation (RCC4; PCR angiogenesis array, measured: MMP14; 5 x IC50, 6 h, normoxia; reference: untreated): -1.62

Cc1cc(N2CCCCC2)ccc1-c1cc2c(N3CCC[C@H](C(=O)NCc4ccc(OC(F)(F)F)cc4)C3)ncnc2[nH]1
inhibition (NCI-H2228; cell growth or viability, MTT; 0.04 µg/mL, 72 h): 45.7%

COC(=O)c1cc(NC2=NC(=O)C(=Cc3ccc(C)cc3)S2)ccc1OC(C)=O
metabolite level (MCF7; GC-MS, measured: Phosphoric acid; 1 µM; reference: DMSO): 0.19 fold change

O=[N+]([O-])C(=C\Nc1ccccc1O)/C=N/c1ccccc1O
pEC50 (LDR; silenced CMV-GFP reporter derepression, qHTS): 5.50

Cc1c(Cl)cccc1Nc1ccccc1C(=O)[Se]CC(=O)Nc1cccc(C(F)(F)F)c1
GI50 (NCI60 NSCLC subpanel; NCI60 five-dose screen): 1.61 µM

COCC/N=C(\S)N/N=C(\C)c1ccccc1O
efficacy (LDR; silenced CMV-GFP reporter derepression, qHTS): 65%

O=C(NCc1ccc(OC(F)(F)F)cc1)[C@H]1CCCN(c2ncnc3[nH]c(-c4ccc(C(F)(F)F)cc4)cc23)C1
inhibition (NCI-H2228; cell growth or viability, MTT; 0.008 µg/mL, 72 h): 8.67%

CO[C@@H]1[C@@H](OC(N)=O)[C@@H](O)[C@H](Oc2ccc3c(O)c(NC(=O)c4ccc(O)c(CC=C(C)C)c4)c(=O)oc3c2C)OC1(C)C
colony survival (DLD-1 BRCA2-/-; 100 µM, mean of replicates A, B; reference: untreated): 0.326%

O=C(NCc1ccc(OC(F)(F)F)cc1)[C@H]1CCCN(c2ncnc3[nH]c(-c4ccncc4)cc23)C1
inhibition (NCI-H2228; cell growth or viability, MTT; 0.2 µg/mL, 72 h): 60.3%

C=CC(=O)N1[C@H](c2ccc3c(c2)OCO3)c2[nH]c3ccccc3c2C[C@@H]1C(=O)NC
mean neuron degeneration (rat DRG neurons; 0.004572 µM, 48 h, added: vincristine 40 nM): 81.1%

CN1CCCNC(=O)c2cccc(c2)C(=O)NCCCN(C)CCCNc2cccc3c2C(=O)c2cccc(c2C3=O)NCCC1
log2 fold change (SAS; RNA-Seq, measured: DDX20 mRNA; 1 µM, 6 h; reference: untreated cells): 0.708

CCN(C(=O)c1cc(F)ccc1Oc1nncnc1N1CCC2(C1)CN([C@H](CCCN(C)CCOC)C(C)C)C2)C(C)C
GI50 (WSU-NHL; cell growth or viability; 72 h): > 10 µM

Cc1ncsc1-c1ccc(C(C)NC(=O)C2CC(O)CN2C(=O)C(NC(=O)CCCCCCCCCCN2CCCC(Nc3ncc(Cl)c(Nc4ccccc4S(=O)(=O)C(C)C)n3)C2)C(C)(C)C)cc1 (stereo not shown)
log2 fold change (22Rv1; RNA-seq, measured: ZNF658B mRNA; concentration not given; reference: DMSO): -1.55

Cc1ccncc1.[Cl-].[Cl-].[Ru+2].c1cc(-c2ccc3cccnc3n2)nc(-c2ccc3cccnc3n2)c1.c1ccc2cc3nc4c5cccnc5c5ncccc5c4nc3cc2c1
phototherapeutic index (SK-MEL-28; visible light, oxygen 1%; reference: dark EC50 over light EC50): 1

O=C(C[Se]C(=O)c1ccc2ccccc2n1)Nc1cccc(C(F)(F)F)c1
mean TGI (NCI60 renal subpanel; total growth inhibition, inhibitor; five-dose): 3.59 µM

CC(C)c1ccc(N(C)c2ccc3c(c2)OCC[C@H]3CNc2cnccc2C(=O)O)cc1
pIC50 (A204; cell growth or viability, ATP luminescence; 7 days): ≤ 5.00
